{"data": "Measured values from different studies", "note": "Numbers after ± are the reported error."}
{"SMILES": "CN[C@H]1CCN(C(=O)c2c(C)cc(C(F)(F)F)nc2-c2ccnc3cc(CN4C(=O)C5C(C4=O)C5(C)C)sc23)C1 (stereo partly shown)", "system": "CT26 tumour-bearing mouse, blood", "setting": "dose not given", "measurement": "blood monocyte count", "result": "decreased"}
{"SMILES": "CSCC[C@@H]1NC(=O)[C@H](C(C)C)NC(=O)[C@H](CCCNC(=N)N)NC(=O)[C@@H]2CCCN2C(=O)CNC(=O)[C@@H](NC(=O)CNC(=O)[C@H](CO)NC(=O)CNC(=O)[C@H](CO)NC(=S)Nc2ccc(C[C@H]3CN(CC(=O)O)CCN(CC(=O)O)CCN3CC(=O)O)cc2)CSSC[C@@H](C(N)=O)NC(=O)[C@@H]2CCCN2C(=O)CNC(=O)[C@H](CCC(=O)O)NC(=O)[C@H](CC(=O)O)NC(=O)[C@H](CC(=O)O)NC(=O)CNC(=O)[C@H](CC(C)C)NC(=O)[C@H](Cc2c[nH]cn2)NC(=O)[C@H](CC(C)C)NC(=O)CNC(=O)[C@H](Cc2c[nH]cn2)NC1=O [copper-64 labelled]", "assay": "dynamic PET", "system": "CD rat, myocardial infarction model, left ventricular blood pool", "setting": "intravenous, 18.5 MBq, 5 to 60 min", "measurement": "half-life", "result": "19.4 ± 1.5 min"}
{"SMILES": "CC(C)[C@@H]1NC(=O)CNC(=O)[C@H](CC(N)=O)NC(=O)[C@H](CCCNC(=N)N)NC(=O)[C@H](Cc2ccc(O)cc2)NC(=O)[C@H](C(C)C)NC(=O)[C@@H](NC(=O)[C@@H](NC(=O)[C@H](CC(N)=O)NC(=O)[C@H](Cc2c[nH]c3ccccc23)NC(=O)[C@H](C)NC(=O)[C@H](Cc2ccccc2)NC(=O)CNC(=O)[C@H](CCCCN)NC(=O)[C@H](Cc2ccccc2)NC(=O)[C@H](Cc2ccccc2)NC(=O)[C@H](CCCCN)NC(=O)OCC2c3ccccc3-c3ccccc32)C(C)C)CSSC[C@@H](C(=O)N[C@@H](Cc2c[nH]cn2)C(=O)N[C@@H](CCCNC(=N)N)C(=O)N[C@@H](CCCNC(=N)N)C(=O)N[C@@H](C)C(=O)N[C@@H](CC(N)=O)C(N)=O)NC(=O)[C@H](C(C)C)NC(=O)[C@H](CCCNC(=N)N)NC1=O", "assay": "HPLC", "system": "mouse kidney homogenate 50 mg/mL", "setting": "2.00 h, 37 °C", "measurement": "peptide remaining", "result": "76.2%"}
{"SMILES": "O=C1NC2(CC2)COc2ncc(F)cc2[C@H]2COCCN2c2ccn3ncc1c3n2", "system": "Sprague-Dawley rat, female, adrenals", "setting": "oral, 5 mg/kg/day, 4 weeks, end of treatment", "measurement": "organ-to-body weight ratio", "result": "0.021 ± 0.003%"}
{"SMILES": "C#Cc1c(F)ccc2cc(O)cc(-c3ncc4c(N5CC6CCC(C5)N6C(=O)OC(C)OC(=O)CC56CC7CC(CC(C7)C5)C6)nc(OC[C@@]56CCCN5C[C@H](F)C6)nc4c3F)c12 (stereo partly shown)", "assay": "chemical stability", "system": "simulated intestinal fluid", "setting": "1 µM, 30 min", "measurement": "compound remaining", "result": "80%"}
{"SMILES": "CSCC[C@H](NC(=O)[C@@H](NC(=O)[C@H](CC(C)C)NC(=O)[C@@H](NC(=O)[C@H](Cc1c[nH]cn1)NC(=O)CCCCCNC(=O)[C@H](CCCNC(=N)N)NC(=O)[C@H](CCCNC(=N)N)NC(=O)[C@H](CCCNC(=N)N)NC(=O)[C@H](CCC(N)=O)NC(=O)[C@H](CCCNC(=N)N)NC(=O)[C@H](CCCNC(=N)N)NC(=O)[C@H](CCCCN)NC(=O)[C@H](CCCCN)NC(=O)[C@H](CCCNC(=N)N)NC(=O)CNC(=O)[C@@H](N)Cc1ccc(O)cc1)C(C)C)C(C)C)C(=O)N[C@@H](CS)C(=O)N[C@@H](C)C(=O)N[C@H](C(N)=O)[C@@H](C)O", "system": "C57BL/6J mice", "setting": "Alzet osmotic pump, 3 mg/kg, 8 weeks", "measurement": "total protein", "result": "4.3 g/dL"}
{"SMILES": "CN1Cc2cc(Cl)ccc2-n2c(nnc2C2CCN(c3cccc([18F])n3)CC2)C1", "system": "C57BL/6 mouse male, testis", "setting": "intravenous, 3.7 MBq, 15 min", "measurement": "tissue uptake", "result": "0.97 ± 0.11 %ID/g"}
{"SMILES": "N#[11C]c1ccc(-c2csc(NN=C3CCCC3)n2)cc1", "system": "C57BL/6 mice, male, thymus", "setting": "intravenous, 3 MBq, 5 min", "measurement": "radioactivity uptake", "result": "4.17 ± 1.06 %ID/g"}
{"SMILES": "N=C(N)NCCC[C@H](NC(=O)[C@H](CCCNC(=N)N)NC(=O)[C@H](CCCNC(=N)N)NC(=O)[C@H](CCC(N)=O)NC(=O)[C@H](CCCNC(=N)N)NC(=O)[C@H](CCCNC(=N)N)NC(=O)[C@H](CCCCN)NC(=O)[C@H](CCCCN)NC(=O)[C@H](CCCNC(=N)N)NC(=O)CNC(=O)[C@H](Cc1ccc(O)cc1)NC(=O)[C@H](Cc1ccccc1)NC(=O)[C@H](Cc1ccccc1)NC(=O)[C@H](Cc1ccccc1)NC(=O)OCC1c2ccccc2-c2ccccc21)C(=O)O", "system": "C57BL/6 mice", "setting": "intraperitoneal, 20 mg/kg, 12 h", "how to read": "direction not given", "measurement": "health score", "result": 5}
{"SMILES": "C=CC(=O)Nc1cccc(Cn2ncc3cnc(Nc4cnn(CCOC)c4)nc32)c1", "system": "male Sprague-Dawley rat", "setting": "oral, 180 mg/kg/day, day 28, 28-day subacute toxicity", "measurement": "blood MPV", "result": "5.76 ± 0.38 fL"}
{"SMILES": "CCCC[C@H]1C(=O)N(C)[C@@H](CCCC)C(=O)N[C@@H](CCCNC(=O)CN2CCN(CC(=O)O)CCN(CC(=O)O)CCN(CC(=O)O)CC2)C(=O)N[C@H](C(=O)NCC(N)=O)CSCC(=O)N[C@@H](Cc2ccc(O)cc2)C(=O)N(C)[C@@H](C)C(=O)N[C@@H](CC(N)=O)C(=O)N2CCC[C@H]2C(=O)N[C@@H](Cc2c[nH]cn2)C(=O)N[C@@H](CC(C)C)C(=O)N(C)CC(=O)N[C@@H](Cc2c[nH]c3ccccc23)C(=O)N[C@@H](CO)C(=O)N[C@@H](Cc2c[nH]c3ccccc23)C(=O)N1C [gallium-68 labelled]", "system": "NOD/SCID mice, CHO-hPD-L1 xenograft, skin", "setting": "60 min, atezolizumab 10 mg/kg pretreatment", "measurement": "tissue uptake", "result": "4.4 ± 0.54 %ID/g"}
{"SMILES": "CC[C@H](C)[C@H](NC(=O)[C@H](CCCCN)NC(=O)CNC(=O)[C@H](CC(C)C)NC(=O)[C@H](Cc1ccccc1)NC(=O)[C@H](CCCCN)NC(=O)[C@H](CO)NC(=O)[C@H](Cc1ccccc1)NC(=O)[C@H](Cc1c[nH]c2ccccc12)NC(=O)[C@H](CCC(N)=O)NC(=O)[C@@H](NC(=O)[C@H](Cc1ccccc1)NC(=O)CCCCCNC(=O)CN1CCN(CC(=O)O)CCN(CC(=O)O)CCN(CC(=O)O)CC1)C(C)C)C(=O)N[C@@H](CCC(=O)O)C(=O)N1CCC[C@H]1C(=O)N[C@@H](CC(=O)O)C(=O)N[C@H](C(=O)N[C@@H](CO)C(=O)N[C@@H](CCC(N)=O)C(=O)N[C@H](C(=O)N[C@@H](CCC(N)=O)C(=O)N[C@@H](CC(=O)O)C(=O)N1CCC[C@H]1C(=O)N[C@@H](CC(N)=O)C(=O)N[C@@H](CC(=O)O)C(=O)N[C@@H](CCC(N)=O)C(=O)N[C@@H](Cc1ccc(O)cc1)C(=O)N[C@@H](CCC(=O)O)C(=O)N1CCC[C@H]1C(=O)N[C@@H](Cc1ccccc1)C(=O)O)C(C)C)C(C)C [copper-64 labelled]", "assay": "dynamic PET", "system": "mouse, CT26 tumour, checkpoint inhibitor-treated, tumour", "setting": "intravenous, 100 µCi/mouse, 3100 s", "measurement": "SUVmean", "result": "4.76 SUV"}
{"SMILES": "CC(=O)NCCCC[C@@H]1NC(=O)[C@H](Cc2c[nH]c3c(C)cccc23)NC(=O)[C@H]([C@@H](C)O)NC(=O)[C@H](CC(N)=O)NC(=O)[C@@H](NC(C)=O)C(C)(C)SSC(C)(C)[C@@H](C(=O)N[C@@H](Cc2ccc(OCCN)cc2)C(=O)N[C@@H](Cc2ccc3ccccc3c2)C(=O)NC2(C(=O)N[C@@H](CCC(=O)O)C(=O)N[C@@H](CC(N)=O)C(=O)N[C@@H](Cc3cccnc3)C(=O)N(C)CC(N)=O)CCOCC2)NC1=O", "system": "cynomolgus monkey, blood", "setting": "0.0013 µM, 2 h", "measurement": "whole blood to plasma concentration ratio", "result": "0.43 ± 0.01"}
{"note": "A few entries again:"}
{"SMILES": "CN[C@H]1CCN(C(=O)c2c(C)cc(C(F)(F)F)nc2-c2ccnc3cc(CN4C(=O)C5C(C4=O)C5(C)C)sc23)C1 (stereo partly shown)", "system": "CT26 tumour-bearing mouse, blood", "setting": "dose not given", "measurement": "blood monocyte count", "result": "decreased"}
